Published values collected from several papers.
Every numbered part comes from another study and shows a few of its results, in no order. Positions count from the first letter of the parent shown.

Set 1 — method: RNA Bind-n-Seq; form: RNA; medium: in vitro; concentration: 200 nM; setting: whole 134-nt RNA, ends assumed; together with: 150 mM KCl; baseline: input library; reading: higher = stronger binding
Target: Ras GTPase-activating protein-binding protein 1, full length (G3BP1, Homo sapiens, UniProt Q13283)
Chain of UniProt Q13283 (whole entry, looked up): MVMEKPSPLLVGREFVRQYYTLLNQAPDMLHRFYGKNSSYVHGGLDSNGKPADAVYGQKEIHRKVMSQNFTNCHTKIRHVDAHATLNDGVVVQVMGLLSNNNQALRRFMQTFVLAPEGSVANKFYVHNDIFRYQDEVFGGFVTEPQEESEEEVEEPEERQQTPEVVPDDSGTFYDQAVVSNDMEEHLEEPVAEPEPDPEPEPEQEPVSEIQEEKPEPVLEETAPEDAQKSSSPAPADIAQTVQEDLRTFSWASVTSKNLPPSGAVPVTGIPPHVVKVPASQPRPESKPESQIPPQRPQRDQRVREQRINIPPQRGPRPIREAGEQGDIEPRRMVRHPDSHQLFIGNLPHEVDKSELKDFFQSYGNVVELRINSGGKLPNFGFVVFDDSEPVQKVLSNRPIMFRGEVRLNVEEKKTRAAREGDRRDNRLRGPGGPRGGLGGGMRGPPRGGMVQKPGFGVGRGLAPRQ
Constant ends, left off below: GGGAGUUCUACAGUCCGACGAUC … UGGAAUUCUCGGGUGUCAAGG
`CCUCAAGUCCUGUGCUACACAUCGUAUGUACCGAAUCGGUUUGGAAAGGUGGAAAGUAUUAUGUUACGCCGUUCGGAUCUGCACUUCCAG` gave a log2 enrichment of -0.086.
`CACAGACAACACGCACCCACACAGACACAGAGGGAAGGGUUUGGGAUGGGGACAGGGUGCACAGCAGGGCGGGGUAGGACCCCAGCCCCU` has a log2 enrichment of 1.99.
The log2 enrichment of `UGGGAGGUGGAUUUUGUUUAUUUUUUUAGCUCAUUUCCAGGGGUGGGAAUUUUUUUUUAAUAUGUGUCAUGAAUAAAGUUGUUUUUGAAU` is reported as 0.371.
The log2 enrichment of `UUGUCUACAGAACUAGACAGUACGGAUGGUGCCAAAGUUUUUAGUAAACAACCAGGAAGAAUCCAAAGAGUAGCAAGAGGAUCGGGUGUA` is reported as -1.34.
The log2 enrichment of `AGUCCUGUGCUACACAUCGUAUGUACCGAAUCAAACCCCCAAACCCAAAUUUUUAAAAAAGUAUUAUGUUACGCCGUUCGGAUCUGCACU` is reported as -0.176.
`CUCAAGUCCUGUGCUACACAUCGUAUGUACCGAAUCGGGAGGGAAAGGGAGGGAAAGUAUUAUGUUACGCCGUUCGGAUCUGCACUUCCA` has a log2 enrichment of 1.3.
The log2 enrichment of `CCUGUGCUACACAUCGUAUGUACCGAAUCGGGGAAAGGGGAAAAAGGGGAAAAAAAGGGGAAAGUAUUAUGUUACGCCGUUCGGAUCUGC` is reported as 0.118.
With `GUCCUGUGCUACACAUCGUAUGUACCGAAUCGGGGCCCCCGGGGCCCCCGGGCCCCCGGAAAGUAUUAUGUUACGCCGUUCGGAUCUGCA` the log2 enrichment was 1.17.

Set 2 — target: NFE2, bZIP domain (human); method: DHFR protein complementation; medium: yeast; baseline: wild-type JUN-FOS pair; reading: higher = stronger binding
Setting: single substitutions, most at no-binding floor
Starting sequence: JUN, bZIP domain (human); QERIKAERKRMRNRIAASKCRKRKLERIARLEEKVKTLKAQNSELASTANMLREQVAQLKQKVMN; partner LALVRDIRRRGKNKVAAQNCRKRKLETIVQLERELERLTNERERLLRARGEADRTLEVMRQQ
`T48K` gave a binding fitness of -1.51 natural log.
`A46S` gave a binding fitness of -1.35 natural log.
With `V35A` the binding fitness was -1.44 natural log.
With `Q55G` the binding fitness was -1.46 natural log.
`N42V` has a binding fitness of -1.34 natural log.
For `M51L`, the binding fitness was -1.31 natural log.
`L59G` has a binding fitness of -1.5 natural log.
With `K39E` the binding fitness was -1.5 natural log.

Other studies, line by line
P1: viral docking peptide; KGVKRKLFAEDSS; partner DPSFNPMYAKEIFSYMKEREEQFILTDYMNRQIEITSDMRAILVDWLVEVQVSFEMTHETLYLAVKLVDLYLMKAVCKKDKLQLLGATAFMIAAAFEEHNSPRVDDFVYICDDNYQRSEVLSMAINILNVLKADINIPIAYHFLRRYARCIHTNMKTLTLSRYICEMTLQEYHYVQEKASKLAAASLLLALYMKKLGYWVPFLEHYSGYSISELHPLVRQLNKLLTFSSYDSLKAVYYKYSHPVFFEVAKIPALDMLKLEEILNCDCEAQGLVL
Under interaction screen, `HMGA1 (Homo sapiens, UniProt P17096)` is recorded as “cross-linked” (H2BC12L (Homo sapiens, UniProt P57053); cross-linking MS; hits only).
For `P1 V3N`, “normalised enrichment score” read 0.219 (CCNB3, cyclin fold, Cln2 fusion (human); yeast growth competition, sequencing; yeast; strong parent motif; baseline: not given, higher = stronger binding).
